# Assay results gathered from unrelated publications.
# Each numbered part is a random draw from the data of one study; scales do not carry over between parts. Positions count from the first letter of the parent shown.

# Study 1 — method: competition protein-binding microarray; molecule type: double-stranded DNA, one strand shown; sample: in vitro; concentration: 2 µM; added: Pho4 competitor, 0.05 µM; reading: higher = stronger binding; constant ends, left off below: … GTCTTGATTCGCTTGACGCTGCTG
# Target: Centromere-binding protein 1, full length, His-tagged (CBF1, Saccharomyces cerevisiae, UniProt P17106, residues 1-351)
# UniProt P17106, sequence (whole entry, looked up): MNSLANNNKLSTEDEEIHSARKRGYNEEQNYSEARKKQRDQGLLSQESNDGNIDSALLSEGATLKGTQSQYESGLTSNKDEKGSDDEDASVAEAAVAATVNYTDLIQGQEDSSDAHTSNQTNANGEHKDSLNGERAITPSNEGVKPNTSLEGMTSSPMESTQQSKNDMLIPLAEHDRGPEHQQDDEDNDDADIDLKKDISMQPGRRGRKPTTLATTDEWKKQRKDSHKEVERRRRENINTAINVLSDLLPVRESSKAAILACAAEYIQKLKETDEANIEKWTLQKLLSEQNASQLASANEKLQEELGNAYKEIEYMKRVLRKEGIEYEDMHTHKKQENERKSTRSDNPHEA
# Notes: whole 60-bp probe, lowest competitor level
Oligonucleotide,fluorescence intensity
CGATAGGTATAGGATCAGGCTTCACACTTAGTGTTT,75.2 a.u.
AAAGCGGTAATTTGTGGGGTGGGTGCAGATATCTAT,84.6 a.u.
AAATTACTAAGTTGCGATGTGGGTGACGCCGTATGA,58.9 a.u.
GCATCTGCAGGGTGCCTCGTGCAAAGTTAGAGGAAG,121 a.u.
GGAAGTCCACACCGAAGTGTGACGGCTGAGTCTGTG,51.6 a.u.
CGTCCTAGTGATTGTAGAGTGGGTGCCATGAGGAAG,82.4 a.u.
ACCCTCAAGCTTTGGCGCGTGCGGATCTATATAAGG,91.3 a.u.
TTCTACAAAGCATTTCACATGCTAATAAAAGCCCCG,158 a.u.

# Study 2 — method: RNA Bind-n-Seq; molecule type: RNA; sample: in vitro; concentration: 365 nM; reference: no-protein control; reading: higher = stronger binding
# Target: RNA binding protein fox-1 homolog 2, RRM domain, GST-SBP tag (RBFOX2, Homo sapiens, UniProt O43251-10, residues 100-194)
# Notes: natural RNA segment, single round, ends assumed
# Constant ends, left off below: GGGAGUUCUACAGUCCGACGAUC … UGGAAUUCUCGGGUGCCAA
# Construct (chain): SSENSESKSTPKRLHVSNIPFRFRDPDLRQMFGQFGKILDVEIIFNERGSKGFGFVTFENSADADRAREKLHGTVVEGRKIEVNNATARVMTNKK
Oligonucleotide,RBNS enrichment (R)
ACUCAGAGUCUGCCUGCAUCUGUCUCCUAGUGCUGGGAUUAAAGGUGUGAGCCAUUAUACCUGGCUUUCAGGUAUGUUUUCUUAAGACUGCCAUCACAAAUGUCCCGGGG,0.613
GUCUGAGGAGUGUGAACCGUUGGGGUCACUUUAGGCCCAGAGUAACUCUCCCAGAAGAAAACUUGUUUGCCUUCAACCUUGUUUUCCAGUUCUGCAGCGUCAUGGAGGAU,0.408
AUGCUUGUCAAUAGCCUUUUUCUAUCAAGAAAACAAGGAGCUAAUUAUUAAUAACAGUCAUGGCACACUGUGUCCUAUCUUAGCAUUUAAAAGUAUGCAAACUCCAGGUC,0.355
AUGCCGUUUUCUUACACUACCAGUGGAUGUCCAGACAUGCUCUUAGUCUACUAGAGAGGUGCUGCCUUUUCUAAGUCAUAAUGAGGAACAGUCCCUUAAUUUCUUGUGUG,0.395
GUUCCUGGUGCCUUCUGAUGGGGCUGGAAUAGUUGAGGUGGAUGGUUCUACCCUUUCUGCCUUCUGUUUGGGACCCAGCUGGUGUUCUUUGGUUUGCUUUCUUCAGGCUC,0.279
UGUCUCGUGUGACAGAUUGCUUCAUUUAUGUUUCUACAUAGUAAGGUGACUGCCAAAUAAUAUUUGAAGUCAUCUGUCUCUUUGUAAAUUAUUUUAUAUGACCUAUAAAU,0.352
CUGUGUUUAUCCACCGGUAGCGAUGCCCACCUUCCAGCCGGGAGAAAUAAAUGGUUUAUAAGAGACCCGGUUGCCUCAGCUUCUGCUUCCUUGGCUUGCGGAGGAAUUGG,0.281
UAAACCUAUUGCUUGAAGCUUUGAACAGCUGAGAAGUGGUCUGGAGAGGCAGAAGCUGAAGGUUCUAUAUCCAGUGUGUUUUAUGUCCAGAAUGUAAGAGAGUUGUCUAA,1.18

# Study 3 — method: aptamer microarray, sandwich; molecule type: DNA with 2'F-ANA; sample: in vitro; concentration: 200 nM; added: Cy3 exosite-II aptamer, 400 nM; reading: higher = stronger binding; oligonucleotide: GGTTGGTGTGGTTGG
# Target: Prothrombin, mature alpha-thrombin (F2, Homo sapiens, UniProt P00734)
# Notes: whole 15-mer aptamer, many near background
Modification,mean fluorescence intensity
2'F-ANA at 2 4 7 11 12 13 14,121 a.u.
2'F-ANA at 4 5 6 8 10 11 13,48.5 a.u.
2'F-ANA at 1 2 3 6 7 9 10 12,92.2 a.u.
2'F-ANA at 1 2 3 5 9 10 12 15,47.2 a.u.
2'F-ANA at 1 2 4 7 8 10 12 14 15,48.8 a.u.
2'F-ANA at 1 3 7 11 14,96.7 a.u.
2'F-ANA at 1 2 3 4 5 6 7 8 9 14,46.5 a.u.
2'F-ANA at 2 7 9 11,442 a.u.

# Mixed results — parent: viral docking peptide; KKVKRRLFETREL
Change,target,test,system,conditions,how to read,endpoint,result
E9A,"CCND1, cyclin fold, Cln2 fusion (human)","yeast growth competition, sequencing",yeast,weak parent motif,"reference: not given, higher = stronger binding",normalised enrichment score,0.252

# For quick reference, copied from above (study 3):
Modification,mean fluorescence intensity
2'F-ANA at 1 2 4 7 8 10 12 14 15,48.8 a.u.
2'F-ANA at 2 7 9 11,442 a.u.
2'F-ANA at 2 4 7 11 12 13 14,121 a.u.
